{"data": "Measured values collected from several papers", "cell line": "HeLa", "note": "Each line is one published result; not all experiments were run side by side."}
{"Compound": "CC(=O)N1CCC[C@H]1C(=O)N[C@@H](CC(C)C)C(=O)N[C@@H](Cc1c[n+](CCC(O)CO)cn1CCCCCCCCc1ccccc1)C(=O)N[C@@H](CO)C(=O)N[C@H](C(N)=O)[C@@H](C)OP(=O)([O-])O (stereo partly shown)", "assay": "cell proliferation", "conditions": "48 h", "IC50": "~90 µM"}
{"Compound": "COC(=O)[C@@H](NC(=O)[C@@H](NC(=O)[C@@H](NC(=O)[C@@H]1CCCN1C(=O)[C@H](C)NC(=O)OC(C)(C)C)C(C)C)C(C)C)C(C)C", "assay": "cell growth or viability, SRB", "IC50": "4 µM"}
{"Compound": "C[C@H]1[C@H](OCCc2ccc(O)cc2)O[C@@H]2O[C@@]3(C)CC[C@H]4[C@H](C)CC[C@@H]1[C@@]24OO3", "assay": "cell growth or viability, MTT", "IC50": "2.73 µM"}
{"Compound": "CC1=CC=c2ccc3c4c2[N]1[Re](=[C]=O)(=[C]=O)(=[C]=O)([C]#[N+]c1cc(C)cc(C)c1)[N]4C(C)=CC=3.O=S(=O)([O-])C(F)(F)F", "assay": "cell growth or viability, MTT", "conditions": "48 h", "IC50": "6.8 µM"}
{"Compound": "O=C(Cc1ccc2ccccc2c1)N[C@H](Cc1ccccc1)C(=O)N[C@H](Cc1ccccc1)C(=O)N[C@H](Cc1ccc(OP(=O)(O)O)cc1)C(=O)N[C@H](Cc1ccc(OP(=O)(O)O)cc1)C(=O)O", "assay": "cell growth or viability, MTT", "IC50": "> 483 µg/mL"}
{"Compound": "CC(C)C[C@H](NC(=O)[C@H](CC(C)C)NC(=O)[C@H](Cc1c[nH]cn1)NC(=O)[C@H](CCC(=O)O)NC(=O)[C@H](CC(C)C)NC(=O)[C@H](Cc1c[nH]cn1)NC(=O)[C@H](CCC(=O)O)NC(=O)[C@H](CC(C)C)NC(=O)[C@H](CC(C)C)NC(=O)[C@H](Cc1c[nH]cn1)NC(=O)[C@H](CCC(=O)O)NC(=O)[C@@H](N)CC(C)C)C(=O)N[C@@H](CCC(=O)O)C(=O)N[C@@H](Cc1c[nH]cn1)C(N)=O", "assay": "cell growth or viability, MTT", "conditions": "pH 6", "IC50": "> 100 µM"}
{"Compound": "CC[C@H](C)[C@H](NC(=O)[C@H](C)NC(=O)[C@H](CCCCN)NC(=O)[C@H](CC(C)C)NC(=O)[C@@H](N)Cc1ccccc1)C(=O)N[C@@H](CCCCN)C(=O)N[C@@H](CCCCN)C(=O)N[C@@H](Cc1ccccc1)C(=O)NCC(=O)N[C@@H](CCCCN)C(=O)N[C@@H](CCC(=O)O)C(=O)N[C@@H](Cc1ccccc1)C(=O)N[C@@H](CCCCN)C(=O)N[C@@H](CCCCN)C(=O)N[C@H](C(=O)NCC(=O)N[C@@H](C)C(=O)N[C@@H](CCCCN)C(=O)N[C@@H](CC(C)C)C(=O)N[C@@H](CCCCN)C(=O)O)[C@@H](C)CC", "assay": "cell growth or viability, MTT", "IC50": "> 128 µg/mL"}
{"Compound": "Cc1nn(-c2ccccc2)c(O)c1C(c1cccs1)c1c(C)nn(-c2ccccc2)c1O", "assay": "cell growth or viability, MTT", "conditions": "48 h", "IC50": "30.8 µM"}
{"Compound": "CC[C@H](C)[C@@H]1NC(=O)[C@H](Cc2c[nH]c3ccccc23)NC(=O)[C@H](C)NC(=O)[C@H](Cc2ccc(O)cc2)NC(=O)[C@H](CC(C)C)NC(=O)[C@H](Cc2c[nH]c3ccccc23)NC1=O", "assay": "cell growth or viability, MTT", "conditions": "48 h", "IC50": "169 µg/mL"}
{"Compound": "CC1OC(OC2CCC3(C)C(CCC4C3CCC3(C)C(C5=CC(=O)OC5)CCC43O)C2)C(O)C(O)C1OC1OC(CO)C(O)C(O)C1O (stereo not shown)", "assay": "cell growth or viability, MTT", "conditions": "48 h", "IC50": "0.03 µM"}
{"note": "A few entries again:"}
{"Compound": "Cc1nn(-c2ccccc2)c(O)c1C(c1cccs1)c1c(C)nn(-c2ccccc2)c1O", "assay": "cell growth or viability, MTT", "conditions": "48 h", "IC50": "30.8 µM"}
